Results collected from several papers.
A part holds a random share of what one study measured. Substitutions count along the parent as printed.

Sample 1 — technique: aptamer microarray, sandwich; form: DNA with 2'F-ANA; sample: in vitro; concentration: 200 nM; with: Cy3 exosite-II aptamer, 400 nM; reading: higher = stronger binding; quantity: mean fluorescence intensity; strand: GGTTGGTGTGGTTGG
Target: Prothrombin, mature alpha-thrombin (F2, Homo sapiens, UniProt P00734)
Notes: whole 15-mer aptamer, many near background
Modification = 2'F-ANA at 1 2 5 8 11 14 15; value = 51.1 a.u.
Modification = 2'F-ANA at 3 5 8 12; value = 337 a.u.
Modification = 2'F-ANA at 2 3 4 7 8 9 10 11 12 15; value = 291 a.u.
Modification = 2'F-ANA at 3 4 5 15; value = 107 a.u.
Modification = 2'F-ANA at 4 7 8 9 12 15; value = 743 a.u.
Modification = 2'F-ANA at 1 4 6 7 8 9 11 12 13 15; value = 157 a.u.
Modification = 2'F-ANA at 1 2 4 5 8 9 13 14; value = 59.3 a.u.
Modification = 2'F-ANA at 1 6 8 10 12 13 15; value = 202 a.u.
Modification = 2'F-ANA at 1 4 5 7 11 12 15; value = 82.6 a.u.
Modification = 2'F-ANA at 1 2 4 7 8 9 13 15; value = 97.7 a.u.
Modification = 2'F-ANA at 1 4 8 9 13 15; value = 86 a.u.
Modification = 2'F-ANA at 4 5 8 9 10 11 12 13 15; value = 46.6 a.u.
Modification = 2'F-ANA at 1 3 5 8 9 10 11 12 14; value = 45.9 a.u.

Sample 2 — technique: universal PBM; form: double-stranded DNA, one strand shown; sample: in vitro; concentration: 600 nM; reading: higher = stronger binding; quantity: E-score
Target: Sal-like protein 4, full length isoform A (SALL4, Homo sapiens, UniProt Q9UJQ4, residues 1-1053)
Sequence of UniProt Q9UJQ4 (whole entry, looked up): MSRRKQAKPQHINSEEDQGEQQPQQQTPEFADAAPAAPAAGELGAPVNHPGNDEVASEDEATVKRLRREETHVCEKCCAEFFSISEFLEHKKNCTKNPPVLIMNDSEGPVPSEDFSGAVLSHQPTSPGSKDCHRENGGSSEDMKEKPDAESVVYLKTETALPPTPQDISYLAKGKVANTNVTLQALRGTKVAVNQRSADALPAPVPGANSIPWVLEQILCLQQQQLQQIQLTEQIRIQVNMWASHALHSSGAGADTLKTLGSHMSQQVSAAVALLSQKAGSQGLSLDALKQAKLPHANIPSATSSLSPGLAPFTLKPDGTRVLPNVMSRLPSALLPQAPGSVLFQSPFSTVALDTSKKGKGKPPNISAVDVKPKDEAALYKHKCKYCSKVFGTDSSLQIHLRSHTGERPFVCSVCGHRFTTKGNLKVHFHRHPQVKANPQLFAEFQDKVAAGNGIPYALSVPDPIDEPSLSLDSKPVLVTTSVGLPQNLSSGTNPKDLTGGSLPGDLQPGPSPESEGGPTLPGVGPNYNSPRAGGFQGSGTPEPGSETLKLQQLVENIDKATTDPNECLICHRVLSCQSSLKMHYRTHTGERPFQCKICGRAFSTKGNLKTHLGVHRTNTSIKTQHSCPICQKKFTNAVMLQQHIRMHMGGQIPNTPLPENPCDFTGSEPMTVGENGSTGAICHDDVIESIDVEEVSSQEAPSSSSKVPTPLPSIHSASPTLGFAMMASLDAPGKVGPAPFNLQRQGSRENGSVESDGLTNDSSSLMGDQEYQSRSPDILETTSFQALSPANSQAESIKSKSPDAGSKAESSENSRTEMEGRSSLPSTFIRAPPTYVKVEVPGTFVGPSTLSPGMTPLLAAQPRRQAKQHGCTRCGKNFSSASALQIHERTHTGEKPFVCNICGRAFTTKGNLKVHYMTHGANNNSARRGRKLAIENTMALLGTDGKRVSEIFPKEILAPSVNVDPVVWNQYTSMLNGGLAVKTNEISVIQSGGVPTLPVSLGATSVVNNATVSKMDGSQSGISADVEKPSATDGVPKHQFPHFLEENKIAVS
Notes: 8-mer, flanks averaged, mean of replicates
Strand = CTAAAGCA; value = 0.0403
Strand = GCGCCACA; value = -0.267
Strand = CTCCAGGC; value = -0.248
Strand = CGCTCAGC; value = -0.174
Strand = TACCCCGA; value = -0.0994
Strand = CGTTGTGC; value = -0.0403
Strand = AGGTCCCA; value = -0.181
Strand = ACCGTTAT; value = 0.178
Strand = CGCACTCC; value = -0.206

Sample 3 — target: CCNB2, cyclin fold, Cln2 fusion (human); technique: yeast growth competition, sequencing; sample: yeast; notes: weak parent motif; relative to: not given; reading: higher = stronger binding; quantity: normalised enrichment score
Starting sequence: CDC6 docking peptide (human); TLKGRRLVFDNQL
Substitution = ILKGRRLVFDNQL [T1I]; value = 0.256
Substitution = TLKGRRLVWDNQL [F9W]; value = 0.277
Substitution = TLKGRRLVLDNQL [F9L]; value = 0.466
Substitution = TLKGCRLVFDNQL [R5C]; value = -0.514
Substitution = TLKGRRLVFDNQM [L13M]; value = 0.471
Substitution = TPKGRRLVFDNQL [L2P]; value = 0.193

Mixed results
Substance = PhoQ, residues 284 288 289 292 302 303 TNASYF; target = PhoP, residues 12 14 15 18 19 VQALL (Escherichia coli, UniProt P23836); test = Sort-seq, item: YFP reporter; test system = E. coli; setting = PhoQ-PhoP variant library, with: 10 µM Mg2+; how to read = relative to: high Mg2+ state, higher = stronger signaling; quantity = fold induction; value = 15.1

Excerpt of the above (sample 1):
Modification = 2'F-ANA at 1 2 4 5 8 9 13 14; value = 59.3 a.u.
Modification = 2'F-ANA at 1 6 8 10 12 13 15; value = 202 a.u.
Modification = 2'F-ANA at 1 3 5 8 9 10 11 12 14; value = 45.9 a.u.
